Measured values collected from several papers.
pIC50: −log10 of the molar value.
Target: Cytochrome P450 1A2 (CYP1A2, Homo sapiens, UniProt P05177)
Sequence of UniProt P05177 (whole entry, looked up): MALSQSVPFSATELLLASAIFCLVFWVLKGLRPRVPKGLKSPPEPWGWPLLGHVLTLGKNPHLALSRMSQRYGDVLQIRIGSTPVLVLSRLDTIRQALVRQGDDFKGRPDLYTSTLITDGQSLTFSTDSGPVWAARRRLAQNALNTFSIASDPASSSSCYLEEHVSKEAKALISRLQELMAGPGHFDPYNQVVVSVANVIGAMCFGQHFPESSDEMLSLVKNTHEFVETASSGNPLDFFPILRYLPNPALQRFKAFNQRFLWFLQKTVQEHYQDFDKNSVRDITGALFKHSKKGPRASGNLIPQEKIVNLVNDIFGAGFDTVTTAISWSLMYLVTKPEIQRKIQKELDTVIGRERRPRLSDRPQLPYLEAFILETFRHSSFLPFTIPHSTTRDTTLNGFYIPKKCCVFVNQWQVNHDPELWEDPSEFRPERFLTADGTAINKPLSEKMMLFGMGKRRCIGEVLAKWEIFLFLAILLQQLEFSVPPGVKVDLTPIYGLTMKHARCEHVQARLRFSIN

Cc1noc(C)c1Cn1cc(N2C(=O)CN(Cc3cccc(O)c3)C2=O)cn1  inhibition (enzyme activity, inhibitor, fluorescence; Sf9; 10 µM): 3%
C#Cc1ccc2c(C)c(-c3ccccc3)c(=O)oc2c1  kinact (enzyme activity, inhibitor; pH 7.6): 0.00167 s⁻¹
COc1cc(CCc2cnc3ccn(S(=O)(=O)c4cn(C)cn4)c3n2)cc(OC)c1  inhibition (enzyme activity, inhibitor; human, liver microsomes; 10 µM, 20 min, pH 7.4): 32%
C#Cc1cc2oc(=O)ccc2cc1OC  kinact (enzyme activity, inhibitor; pH 7.6): 0.00583 s⁻¹
COc1cc(Sc2c(-n3ccnc3)[nH]c3ccccc23)cc(OC)c1OC  inhibition (enzyme activity, inhibitor, fluorescence; 1 µM, 15 min, pH 7.4): < 50%
Nc1ncn([C@@H]2O[C@H](CO)[C@@H](O)[C@H]2O)c(=O)n1  inhibition (enzyme activity, inhibitor; human liver microsomes; 100 µM, together with: ethoxyresorufin 0.4 µM): 19%
COc1cc(Sc2c(-c3cccnc3)[nH]c3ccccc23)cc(OC)c1OC  inhibition (enzyme activity, inhibitor, fluorescence; 1 µM, 15 min, pH 7.4): < 50%
COc1cc2c(Oc3ccc4[nH]c(C)cc4c3F)ccnc2cc1OCC1(N)CC1  intrinsic clearance (substrate; 1 µM, 60 min, pH 7.4, 37 °C): 0.23 µL/min/pmol
C#Cc1ccc2cc(-c3ccccc3)c(=O)oc2c1  kinact (enzyme activity, inhibitor; pH 7.6): 0.0005 s⁻¹
COc1c2ccoc2c(OC)c2oc(=O)ccc12  inhibition (recombinant microsomes; 8 µM, after 20 h dialysis, together with: methoxyresorufin): ~60%
COc1cc(OC)c(Cl)c(CCc2cnc3ccn(S(=O)(=O)c4c[nH]cn4)c3n2)c1Cl  inhibition (enzyme activity, inhibitor; human, liver microsomes; 10 µM, 20 min, pH 7.4): 59%
Cn1c(=O)c2c(ncn2C)n(C)c1=O  AUC(0-inf) (human, plasma; oral, 200 mg, alone, geometric LS mean): 31700 ng·h/mL
CC1=N[C@]2(C(=O)CO)[C@@H](C[C@H]3[C@@H]4C[C@@H](O)C5=CC(=O)C=C[C@]5(C)[C@H]4[C@@H](O)C[C@@]32C)O1  pIC50 (pooled human liver microsomes; 30 min preincubation, together with: NADPH): < 4.30

A few entries again:
COc1cc2c(Oc3ccc4[nH]c(C)cc4c3F)ccnc2cc1OCC1(N)CC1  intrinsic clearance (substrate; 1 µM, 60 min, pH 7.4, 37 °C): 0.23 µL/min/pmol
COc1cc(Sc2c(-n3ccnc3)[nH]c3ccccc23)cc(OC)c1OC  inhibition (enzyme activity, inhibitor, fluorescence; 1 µM, 15 min, pH 7.4): < 50%
